Measured values from different studies.
Numbered parts are unrelated; each lists some results of a single study. Positions count from the first letter of the parent shown.

Sample 1
Target: CCNA2, cyclin fold, Cln2 fusion (human)
Method: yeast growth competition, sequencing
Medium: yeast
Setting: weak parent motif
Baseline: not given
Direction: higher = stronger binding
Parent: E2F8 docking peptide (human); FVPQRKLEVSTED
Variant | normalised enrichment score
FVPQKKLEFSTED [R5K V9F] | 1.06
FVPQAKAEVSTED [R5A L7A] | -0.478
FVPQRALEVSTED [K6A] | -0.437
FVPQRKAEVSTED [L7A] | 0.0171
FAPQRKLEVSTED [V2A] | 0.0321
FVPQAKLEVSTED [R5A] | -0.306
FVPARKLEVSTED [Q4A] | -0.38
FVPQRKLEVSTAD [E12A] | -0.197
FVPQRKLEFSTED [V9F] | 2.52
FVPQKKLELSTED [R5K V9L] | -0.0103
FVPQRKLAVSTED [E8A] | -0.13

Sample 2
Sequence: B1 (MID1 RING domain)
Method: yeast two-hybrid
Medium: yeast
Setting: mostly zero background
Baseline: not given
Direction: higher = stronger interaction
B1: MID1 RING domain (UniProt O15344); chain METLESELTCPICLELFEDPLLLPCAHSLCFNCAHRILVSHCATNESVESITAFQCPTCRHVITLSQRGL
target | lacZ reporter activity
UBE2J1 UBC core domain (UniProt Q9Y385) | 0
UBE2R2 UBC core domain (UniProt Q712K3) | 0
UBE2O UBC core domain (UniProt Q9C0C9) | 0
UBE2J2 UBC core domain (UniProt Q8N2K1) | 4720
UBE2Q1 UBC core domain (UniProt Q7Z7E8) | 0
UBE2S UBC core domain (UniProt Q16763) | 0
UBE2C UBC core domain (UniProt O00762) | 0
UBE2E3 UBC core domain (UniProt Q969T4) | 0

Sample 3
Target: ABI1, truncated, D143A, DHFR fusion (Arabidopsis thaliana)
Method: DHFR PCA, deep sequencing
Medium: yeast
Setting: methotrexate growth selection, single substitutions
With: (+)-ABA 2500 µM
Baseline: wild-type fitted maximum
Direction: higher = stronger binding
Parent: PYL1, truncated, DHFR fusion (Arabidopsis thaliana); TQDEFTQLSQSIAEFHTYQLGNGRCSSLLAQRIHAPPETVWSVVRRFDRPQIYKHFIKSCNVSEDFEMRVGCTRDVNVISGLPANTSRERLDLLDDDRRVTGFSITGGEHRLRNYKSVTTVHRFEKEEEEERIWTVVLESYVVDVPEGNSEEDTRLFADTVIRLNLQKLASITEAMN; partner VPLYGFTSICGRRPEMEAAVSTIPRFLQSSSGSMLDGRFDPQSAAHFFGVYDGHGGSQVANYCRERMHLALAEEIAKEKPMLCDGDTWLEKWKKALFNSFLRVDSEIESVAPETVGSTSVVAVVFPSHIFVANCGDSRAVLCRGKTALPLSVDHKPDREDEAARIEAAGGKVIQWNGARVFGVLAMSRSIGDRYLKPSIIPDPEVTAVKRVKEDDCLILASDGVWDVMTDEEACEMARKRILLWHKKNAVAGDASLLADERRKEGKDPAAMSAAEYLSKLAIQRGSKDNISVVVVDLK
Variant | relative binding score
R163D | 78.5%
F5P | 101%
D92Y | 88.6%
V121T | 83.3%
R45V | 56.6%
R45D | -21.8%
R74I | 8.02%
V161G | -6.27%
M176L | 96.8%
Y141P | -4.89%
S104W | 46.7%
L29I | 94.9%
S104T | 101%
E131Y | 99%
A158K | -9.31%
T119V | 99.1%
R90Q | 97.5%
R90Y | 84.4%
S26N | 95.5%
I52P | 78.7%
I79S | 97.7%
S87E | 2.06%
R46T | 84.3%
R113L | 103%
F66E | 97.9%

Sample 4
Target: Histone acetyltransferase KAT6A, winged helix 1, GST fusion (KAT6A, Homo sapiens, UniProt Q92794, residues 1-85)
Method: protein binding microarray
Form: double-stranded DNA, one strand shown
Medium: in vitro
Concentration: not given
Setting: 8-mer, flanks averaged, mean of 2 arrays, mostly near background
Baseline: not given
Direction: higher = stronger binding
Construct (chain): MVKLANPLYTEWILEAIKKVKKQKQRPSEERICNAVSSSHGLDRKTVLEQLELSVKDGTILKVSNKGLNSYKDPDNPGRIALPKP
Sequence | E-score
ATTCGGCC | 0.184
TCGTTTAA | -0.251
CCTCCGCC | 0.324
ACGGTAGT | 0.131
CAGAACCC | -0.00833
AAGTATAT | -0.0729
GTAACCGA | 0.106
GACTAACA | 0.0126
CGATGAAG | -0.0475
GTGTCAAC | -0.124
ATCAGCCA | -0.097
AAGAGATT | -0.0515
ACTTGGGA | -0.257
GGCCCGGA | 0.175
ACTACCCT | -0.149
CCAACGGC | 0.292
AAATATTC | -0.227
CATATCTA | -0.0375
AGCCGGAC | 0.238
CAGCCTCA | -0.189
CTTGGAAA | -0.152
CGCGGCCG | 0.485
ATTTGACG | 0.148
AGTGATTG | -0.198
AGTTTGTC | -0.162

Sample 5
Target: CEBPD, bZIP domain (human)
Method: DHFR protein complementation
Medium: yeast
Setting: single substitutions, most at no-binding floor
Baseline: wild-type JUN-FOS pair
Direction: higher = stronger binding
Parent: JUN, bZIP domain (human); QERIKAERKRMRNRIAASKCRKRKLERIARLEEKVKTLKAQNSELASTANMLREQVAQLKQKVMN; partner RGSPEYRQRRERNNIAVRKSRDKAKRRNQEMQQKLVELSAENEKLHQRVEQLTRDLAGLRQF
Variant | binding fitness [natural log]
A40G | -1.45
T48L | -1.35
E32V | -1.3
T37I | -1.39
V56L | -1.39
M51G | -1.39
L38S | -1.49
L31Y | -1.33
S43G | -1.41
I28L | -1.32
L38C | -1.48
E44S | -1.38
E32H | -1.22
K36A | -1.34
L31I | -1.37
A29C | -1.41
M51E | -1.35
T48A | -1.36
K39T | -1.28
E44L | -1.39
A40V | -1.38

Sample 6
Target: Sal-like protein 4, full length isoform A (SALL4, Homo sapiens, UniProt Q9UJQ4, residues 1-1053)
Method: universal PBM
Form: double-stranded DNA, one strand shown
Medium: in vitro
Concentration: 600 nM
Setting: 8-mer, flanks averaged, mean of replicates
Direction: higher = stronger binding
Sequence | E-score
ATTCAGCA | 0.12
GTGGTAAA | 0.0573
ATGGCTCC | -0.164
CACAGCAA | 0.0907
GCCGGCTA | -0.214
GGATTCAA | 0.0316
AACACCCT | -0.102
AGCTAAGC | -0.271
AATGCTTC | 0.0582
AATATGCG | 0.252
GCTCTTAA | 0.0442
AGGTTACT | -0.0383
GCGGGCCA | -0.329
ACATCAGC | -0.00874
CGTACGTA | 0.0711
ACGCGGGC | -0.323

Sample 7
Target: RNA binding protein fox-1 homolog 2, RRM domain, GST-SBP tag (RBFOX2, Homo sapiens, UniProt O43251-10, residues 100-194)
Method: RNA Bind-n-Seq
Form: RNA
Medium: in vitro
Concentration: 365 nM
Setting: natural RNA segment, single round, ends assumed
Baseline: no-protein control
Direction: higher = stronger binding
Shared flanks, not repeated: GGGAGUUCUACAGUCCGACGAUC … UGGAAUUCUCGGGUGCCAA
Residues (chain): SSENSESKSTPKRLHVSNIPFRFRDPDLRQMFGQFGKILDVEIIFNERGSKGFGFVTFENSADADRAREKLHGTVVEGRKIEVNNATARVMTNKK
Sequence | RBNS enrichment (R)
UUUCUGACCACGCUCAAUGUGGAAGGCUGGAAGUACACCUUGUUGGAGGCUUCAGUGACGACAGGCAGUUGUCACAAAAACUCACUCAUCAACUUCUUGGUGAAUUUGAC | 0.224
UUUGUCCUACCAGCCACAGCUCCAUAGACAGCAGCUGGCAGUAGAGCAAAAGUUGGGGAGAGGAUUUUGUUGUUUGCCUAGACUAGUCCUGAGGGAAGAAACACCACGUC | 0.419
AAACUAACUGUACUCUGUAUUUCUUAUUUGUACAUAUCAAUGUGAGAAAUCUCCCUUUUUUAUGUUGCAAUUACCUUGUGAUCAGGCAGCUUGAGUGCUAUGCAAAUAGU | 0.61
AGCUCCAGACAGCAAGAGCCCAGGUGCACUGCUCACACCCCCACCUGCAUUUUGAAGUCAUAUUAUUUUUUGUUUUGUUUUUUAAGACGGUCUGGCUCUGUCGCCUAAGC | 16.7
GCUUUGCUUGAGAAGACCCCAGGGAGGACUGUCUUCCACUGCCUGGACUCCUCUCAAGUUGAAGUCAUCGUCUUCAUCUUCCUCCGUAUCUUCUUCCCUCAACUUCUUCA | 1.05
CGGGCUGCAGUGGCGGAAGUGCUGGCGCCAUAGCCACGGUCAGGCUGUGCCCCACCUCCAGCCUCACCACCAGGCCAGGAGGCAGCUGGCACAGUGCUCACGCCGCCUUU | 0.304
GUAGAUCUCCAUGCUUUGCUCUCAAGGCUUGGAGAGGUAUGUGCCCCUCCUGGGUGCUCACCGCCUGCUACACAGGCAGGAAUGCGGUUGGGAGGCAGGUCGGGCUGCCA | 0.268
CCAUAGAGACAACCUGUGUGCUUUCCUGGAUUCCUGAUGAGUUCUGCCAUUUUCUACUUAAUUUCAAAGCCCAGUUUUAAGUAACUGGACUACACUGUUGACCUACCCAU | 0.584
UAAAAUUCCAGUAAUUUCCAAGAAUGUGGUGUUGGUACUUUCCUAAUAAACCGAUAACGUACCUUGACUCUGUCGCCUUUUCUUUUAUGAGCGCUAGGGCACUAAACCUC | 0.349
UCAUAUCUGAGACAGCCCUCAGCUGAGGGCUUGUGGGACAGUGUCCAAGCCUCAGGCUGGGCUCAUUCAUAUAAUUGCAAUAAAUGGUACGUGUCCAUUUGGACAGCAGA | 0.323
GAAAGUUCCCUUUGGUCCACAGGGCCAUUUCAAGCAAGUUCAAUGACCUGGUCCCUUAGAGCUCCAUAUCCCAGUCCCAGCCCUUCUUUGCAGCUGGGCCUCUCUAUACC | 0.377
AAGGACCUUCACUCUAAGAUGUUAUAUUUUUCUUAAAAAGUAACUCCUAGUAGGGGUACCACUGAAUCUGUACAGAGCCGUAAAAACUGAAGUUCUGCCUCUGAUGUAUU | 0.265

Some of these lines once more (sample 4):
Sequence | E-score
CGCGGCCG | 0.485
CAGAACCC | -0.00833
GTAACCGA | 0.106
CAGCCTCA | -0.189
AAGTATAT | -0.0729
CATATCTA | -0.0375
CCTCCGCC | 0.324
ACGGTAGT | 0.131
TCGTTTAA | -0.251
CCAACGGC | 0.292
AGCCGGAC | 0.238
ACTACCCT | -0.149
GACTAACA | 0.0126
ACTTGGGA | -0.257
AGTGATTG | -0.198
AGTTTGTC | -0.162
ATTCGGCC | 0.184
